Published values of several laboratories.
Parts stem from different laboratories: compare values within a part only. Positions count from the first letter of the parent shown.

Set 1 — target: UBE2H UBC core domain (UniProt P62256); technique: yeast two-hybrid; sample: yeast; setting: mostly zero background; reference: not given; reading: higher = stronger interaction; quantity: lacZ reporter activity
UniProt P62256, sequence (whole entry, looked up): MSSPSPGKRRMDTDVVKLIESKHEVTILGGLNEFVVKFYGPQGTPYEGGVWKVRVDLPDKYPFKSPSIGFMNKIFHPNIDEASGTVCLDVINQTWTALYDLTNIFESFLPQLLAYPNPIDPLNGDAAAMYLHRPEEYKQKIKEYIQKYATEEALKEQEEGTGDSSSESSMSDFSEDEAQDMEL
B1: TRIM22 RING domain (UniProt Q8IYM9); chain VKVDIEKEVTCPICLELLTEPLSLDCGHSFCQACITAKIKESVIISRGESSCPVCQTRFQPGNLRP
B2: TRIM31 RING domain (UniProt Q9BZY9); chain FVNKLQEEVICPICLDILQKPVTIDCGHNFCLKCITQIGETSCGFFKCPLCKTSVRKNAIRF
B3: TRIM37 RING domain (UniProt O94972); chain SVESIAEVFRCFICMEKLRDARLCPHCSKLCCFSCIRRWLTEQRAQCPHCRAPLQLRELVN
B4: MYCBP2 RING domain (UniProt O75592); chain TSLKQDADDMCMICFTEALSAAPAIQLDCSHIFHLQCCRRVLENRWLGPRITFGFISCPICKNKINHIVLKD
B5: MEX3B RING domain (UniProt Q6ZN04); chain SGLRRKGSRDCSVCFESEVIAALVPCGHNLFCMECANRICEKSEPECPVCHTAVTQAIRIF
B6: TRIM26 RING domain (UniProt Q12899); chain PLRSLEEEVTCSICLDYLRDPVTIDCGHVFCRSCTTDVRPISGSRPVCPLCKKPFKKENIRP
B7: RLIM RING domain (UniProt Q9NVW2); chain SFGENDALKTCSVCITEYTEGNKLRKLPCSHEYHVHCIDRWLSENSTCPICRRAVLASGNRE
B8: RNF152 RING domain (UniProt Q8N8N0); chain ETLSQDSLLECQICFNYYSPRRRPKLLDCKHTCCSVCLQQMRTSQKDVRCPWCRGVTKLPPGFS
B1 (TRIM22 RING domain): 0
B2 (TRIM31 RING domain): 0
B3 (TRIM37 RING domain): 0
FVKTVEDKYKCEKCHLVLCSPKQTECGHRFCESCMAALLSSSSPKCTACQESIVKDKVF (TRAF3 RING domain (UniProt Q13114)): 0
B4 (MYCBP2 RING domain): 0
YPEEVDDDLICHICLQALLDPLDTPCGHTYCTLCLTNFLVEKDFCPMDRKPLVLQHCKK (LNX1 RING domain (UniProt Q8TBB1)): 0
B5 (MEX3B RING domain): 0
B6 (TRIM26 RING domain): 0
B7 (RLIM RING domain): 0
B8 (RNF152 RING domain): 0

Set 2 — target: CCND3, cyclin fold, Cln2 fusion (human); technique: yeast growth competition, sequencing; sample: yeast; setting: weak parent motif; reference: not given; reading: higher = stronger binding; quantity: normalised enrichment score
Starting sequence: WEE1 docking peptide (human); HKTFRKLRLFDTP; partner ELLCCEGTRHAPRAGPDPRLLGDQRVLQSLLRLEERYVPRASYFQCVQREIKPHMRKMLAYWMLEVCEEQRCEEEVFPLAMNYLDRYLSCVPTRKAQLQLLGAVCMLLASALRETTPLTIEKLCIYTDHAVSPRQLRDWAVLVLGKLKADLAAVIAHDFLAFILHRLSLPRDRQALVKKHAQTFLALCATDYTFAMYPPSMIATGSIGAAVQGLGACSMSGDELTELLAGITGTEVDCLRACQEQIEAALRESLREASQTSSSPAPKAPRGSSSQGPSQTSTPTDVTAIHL
HKTFRKLRLFDTA [P13A]: 0.113
HKTFRKLRLIDTP [F10I]: 0.149
HKDFRKLRLFDTP [T3D]: 0.155
WKTFRKLRLFDTP [H1W]: 0.144
HKTFRKLRLYDTP [F10Y]: 0.0515
VKTFRKLRLFDTP [H1V]: -0.0609
HKTFRKLRLFDTY [P13Y]: 0.136
HHTFRKLRLFDTP [K2H]: 0.0988
HKTFKKLRLFDTP [R5K]: 0.152
HKTFRKLRLTDTP [F10T]: 0.126
HKTFFKLRLFDTP [R5F]: 0.0358
HKTFRKLRLFDTK [P13K]: 0.143
HKTFRRLRLFDTP [K6R]: 0.124
HKTFRFLRLFDTP [K6F]: -0.187
HKTFGKLRLFDTP [R5G]: 0.00634
HKTFRCLRLFDTP [K6C]: 0.127

Set 3 — technique: universal PBM; form: double-stranded DNA, one strand shown; sample: in vitro; concentration: 600 nM; reading: higher = stronger binding; quantity: E-score
Target: Sal-like protein 4, full length isoform A (SALL4, Homo sapiens, UniProt Q9UJQ4, residues 1-1053)
UniProt Q9UJQ4, sequence (whole entry, looked up): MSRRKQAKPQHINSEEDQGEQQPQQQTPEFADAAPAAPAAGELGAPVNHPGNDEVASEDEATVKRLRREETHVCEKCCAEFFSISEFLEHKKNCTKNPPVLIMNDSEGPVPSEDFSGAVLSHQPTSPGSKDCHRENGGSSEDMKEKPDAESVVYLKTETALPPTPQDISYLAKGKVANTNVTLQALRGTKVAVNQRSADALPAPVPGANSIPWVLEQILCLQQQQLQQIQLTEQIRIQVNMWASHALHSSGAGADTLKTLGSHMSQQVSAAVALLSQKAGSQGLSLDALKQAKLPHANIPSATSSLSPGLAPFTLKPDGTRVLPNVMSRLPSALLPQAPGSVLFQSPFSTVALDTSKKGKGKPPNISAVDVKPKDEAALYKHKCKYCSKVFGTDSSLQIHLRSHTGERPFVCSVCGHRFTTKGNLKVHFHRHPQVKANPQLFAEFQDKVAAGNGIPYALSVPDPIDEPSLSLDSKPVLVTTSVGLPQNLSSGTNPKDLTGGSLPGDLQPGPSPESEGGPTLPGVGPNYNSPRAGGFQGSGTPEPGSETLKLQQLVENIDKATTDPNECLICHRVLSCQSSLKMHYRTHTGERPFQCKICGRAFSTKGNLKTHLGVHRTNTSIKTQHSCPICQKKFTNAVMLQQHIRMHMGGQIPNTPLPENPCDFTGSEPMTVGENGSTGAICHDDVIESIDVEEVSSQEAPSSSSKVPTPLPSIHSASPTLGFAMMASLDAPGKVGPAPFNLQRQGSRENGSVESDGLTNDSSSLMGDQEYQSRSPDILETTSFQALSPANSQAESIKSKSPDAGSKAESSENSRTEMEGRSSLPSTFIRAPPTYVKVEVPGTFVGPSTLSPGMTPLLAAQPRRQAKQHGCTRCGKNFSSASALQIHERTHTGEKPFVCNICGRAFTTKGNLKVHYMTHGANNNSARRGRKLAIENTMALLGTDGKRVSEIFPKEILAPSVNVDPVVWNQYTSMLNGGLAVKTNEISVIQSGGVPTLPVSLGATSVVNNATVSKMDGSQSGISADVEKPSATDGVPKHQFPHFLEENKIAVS
Setting: 8-mer, flanks averaged, mean of replicates
CGGGATGA: -0.148
GCTAAGGA: -0.273
AACCGGGC: -0.317
GTGAGATA: 0.198
AAATGCGA: 0.205
AAATTGAA: 0.277
AGTCGGCG: -0.153
CTGGGAAC: -0.261
CCCCTAAA: -0.153
GTTAGCTA: -0.0867
GTGCATCA: 0.0337
CTTTTCCA: 0.101
ATTGTACG: 0.15
CAAACTGA: -0.00307
CGAGCCGA: -0.315
GCCAATCA: -0.0962
AGTCCGTA: -0.0745
AGGCTTAG: -0.0553
AAATTCCG: 0.0957
ACAAACCT: 0.0664

Set 4 — technique: RNA Bind-n-Seq; form: RNA; sample: in vitro; concentration: 365 nM; reference: no-protein control; reading: higher = stronger binding; quantity: RBNS enrichment (R)
Target: RNA binding protein fox-1 homolog 2, RRM domain, GST-SBP tag (RBFOX2, Homo sapiens, UniProt O43251-10, residues 100-194)
Setting: natural RNA segment, single round, ends assumed
Construct (chain): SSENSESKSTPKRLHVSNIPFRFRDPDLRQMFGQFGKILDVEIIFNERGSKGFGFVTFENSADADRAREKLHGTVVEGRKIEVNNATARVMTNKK
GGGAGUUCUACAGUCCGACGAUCGAUUUUUUUCAUGUUUGUUUUAUCUGGGGGUUGUUCAUGAAACUGACAGAUGUUUUUCUAAAAAGGACUAUUAUCAGUUUCCAAAUACAAUACUUCUCUCUUCUGGUUUUUGGAAUUCUCGGGUGCCAA: 0.614
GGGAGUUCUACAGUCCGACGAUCGAGGGAGCCUUUCUCUAAGCCCUGCACUAACCCACUCCUCCCAAGACUCUUGUGGAGUGACAGUUCCAAGCUGAACCAUAAAUCACUGAUGCACAAAACACUGCUAGAAGUGGAAUUCUCGGGUGCCAA: 0.305
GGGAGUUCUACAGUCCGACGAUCAUACAAAUGUUUUAGUAAAAAAGAGAAUUGUAGAUAAUACUGUCUAGGAAAAUAAGAAUUAGGUUUCUUUGAAGAAGGAAUCUUUUAUAACACCUUAACAGUCACCACUGUGGAAUUCUCGGGUGCCAA: 0.294
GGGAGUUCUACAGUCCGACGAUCUCCCCGUCGCAGACGGAGUGCACGUGCCCUGCGCCACAUCCUCACGCUCGGUGGAGGGACGCGUGCGGCGGGACGGUGCCUACGGGUACUUGCAGCUGUGUCCCAUGUGGUGGAAUUCUCGGGUGCCAA: 0.613
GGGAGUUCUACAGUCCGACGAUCCUAAGACUCACGUGCACGAAUCGAAGAGUAAAGAGACAAUACUUGUGAACGUGUGAACGUUAACACUGUAGUUGCUAGAUCUUAAGCUGCUAAUUGUCGAGAGAGAAUUCUGGAAUUCUCGGGUGCCAA: 2.64
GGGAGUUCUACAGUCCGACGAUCGUACACCCACCUGUAAAUACUGUAUCCUCAGUUUAGAAAAUUAGUGCAAUGUAUGAAAAUCAAGUGUUAGGAAAUUUCAUGGUUUCACCUAUAACCUUUAUUUUAGAAUUUGGAAUUCUCGGGUGCCAA: 0.452
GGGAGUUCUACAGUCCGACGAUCAACAUCACUGCUGCAGCGAGGCAGCUCCUCUGUCUACUCGUUCAAGUGUCUUACUCUACUGGAUGCUGGAUAGAAAUUUAGGGUAACUUCUGACAAAGUGUGCCGGUCUAUGGAAUUCUCGGGUGCCAA: 0.301
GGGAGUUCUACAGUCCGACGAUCUGCUAAUUGUGUAUAUGUUGGUUUAAUUAUUAAUUAUGUACUAAGAAUGUCCUUAUUCUUGUGGUUAAAAAACCUGCCUGAAUUAAAUUGGGCUUAAAUCAGUGUAACCUUGGAAUUCUCGGGUGCCAA: 0.498
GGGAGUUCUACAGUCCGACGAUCUUUUAAAAGAUGCAUAAUAGCUGAAUGUAUGCAUGACUUUGAAAGAAGUUAAAAUGGUGAUUUUUUUUCACCUCUUGUACAUUUUAAAACCAGGCCAAAUCUAUUUGCCAUGGAAUUCUCGGGUGCCAA: 0.543
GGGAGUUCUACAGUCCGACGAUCUACUGAAAAAGCCAAAAUGUUUUGUUUCGUUUCUUUUUUUUUUUUUUUUUUAAAGAUAAACUUGUGUAGUUUGGAAGCAGAUUUAGAAAGAUGAACUUCACUUGGGCCAGUGGAAUUCUCGGGUGCCAA: 0.798
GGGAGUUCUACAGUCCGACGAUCUUUUUUAAAGAGAGAGAGAAAAGAGAAAAAAGCUUUUAUUUCCUUGGAUCUCAUUAUCAGAAAUAUUAUUCAGCUCAAGAAAUCUGACCCCAUAUUGGAAAAUGAAUGUCUGGAAUUCUCGGGUGCCAA: 0.943
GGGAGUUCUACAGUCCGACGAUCAUUCUGGGAGUUGAGAGCUCUGCCAGGGUGAGAUGUUUCCUGAAGAGAGGUUCCCCACCCCUGUAACUCCUCACUGUACUGAUUUACUGGCGCAUGAAAUUCUAUUAAAAUGGAAUUCUCGGGUGCCAA: 1.96

Set 5 — target: CREBZF, bZIP domain (human); technique: DHFR protein complementation; sample: yeast; reference: wild-type JUN-FOS pair; reading: higher = stronger binding; quantity: binding fitness
Setting: single substitutions, most at no-binding floor
Starting sequence: JUN, bZIP domain (human); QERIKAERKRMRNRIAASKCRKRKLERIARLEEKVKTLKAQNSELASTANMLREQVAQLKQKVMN; partner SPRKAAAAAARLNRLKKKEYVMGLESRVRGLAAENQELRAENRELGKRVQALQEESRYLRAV
L38S: -1.47 natural log
A40T: -1.36 natural log
L45S: -1.48 natural log
Q55E: -1.48 natural log
R30K: -1.25 natural log
N42M: -1.42 natural log
A49L: -1.5 natural log
A46P: -1.43 natural log
Q55V: -1.52 natural log
K36M: -1.41 natural log
T37Q: -1.45 natural log
M51S: -1.43 natural log
V35A: -1.49 natural log
S43D: -1.5 natural log
N42A: -1.48 natural log
T37N: -1.19 natural log
T37C: -1.53 natural log
R30N: -1.49 natural log
I28T: -1.41 natural log
A57E: -1.03 natural log

Set 6 — technique: DHFR PCA, deep sequencing; sample: yeast; together with: (+)-ABA 200 µM; reference: wild-type fitted maximum; reading: higher = stronger binding; quantity: relative binding score
Target: ABI1, truncated, D143A, DHFR fusion (Arabidopsis thaliana)
Setting: methotrexate growth selection, single substitutions
Starting sequence: PYL1, truncated, DHFR fusion (Arabidopsis thaliana); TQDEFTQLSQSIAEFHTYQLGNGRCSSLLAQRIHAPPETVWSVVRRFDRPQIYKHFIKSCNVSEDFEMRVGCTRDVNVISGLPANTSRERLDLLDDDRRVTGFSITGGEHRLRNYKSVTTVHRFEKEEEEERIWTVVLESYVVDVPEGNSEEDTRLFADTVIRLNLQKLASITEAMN
V161S: 1.29%
T154I: 69.6%
F103D: -2.41%
V145D: -5.64%
V100Q: 63.1%
V44M: 71%
L156A: 97.9%
V145S: 57.2%
E151N: 87.9%
L82R: 9.62%
Y141T: -5.57%
N85T: 109%
T135C: 103%
I162T: 26.6%
T73E: 103%
S59E: 102%
S171G: 93.4%
